Results from different studies.
Every numbered part comes from another study and shows a few of its results, in no order.

Sample 1
Target: Histone acetyltransferase KAT6A, both winged helices, GST fusion (KAT6A, Homo sapiens, UniProt Q92794, residues 1-181)
Technique: protein binding microarray
Form: double-stranded DNA, one strand shown
Matrix: in vitro
Tested at: not given
Notes: 8-mer, flanks averaged, mean of 2 arrays, mostly near background
Baseline: not given
Direction: higher = stronger binding
Measurement: E-score
Target sequence (chain): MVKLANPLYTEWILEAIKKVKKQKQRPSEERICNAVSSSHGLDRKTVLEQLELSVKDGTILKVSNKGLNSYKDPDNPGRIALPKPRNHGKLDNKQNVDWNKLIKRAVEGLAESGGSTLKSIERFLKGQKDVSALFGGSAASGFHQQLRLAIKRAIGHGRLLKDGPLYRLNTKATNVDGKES
Oligonucleotide = AGCATTCA; result = -0.107
Oligonucleotide = CGCGTCAG; result = 0.182
Oligonucleotide = GCCGGAAC; result = 0.254
Oligonucleotide = TTATACAA; result = -0.1
Oligonucleotide = ATCCTTAC; result = 0.00834
Oligonucleotide = GTAGAACA; result = -0.14
Oligonucleotide = CGTATAAG; result = 0.091
Oligonucleotide = AATAGCAA; result = -0.143
Oligonucleotide = GTGCTCAA; result = -0.0363
Oligonucleotide = TATTATCA; result = -0.106
Oligonucleotide = CGAGCAGA; result = -0.0992
Oligonucleotide = GCGTTTTA; result = 0.17
Oligonucleotide = CCAAGGTC; result = -0.176
Oligonucleotide = ATTACACG; result = 0.0587
Oligonucleotide = AAAGCTGG; result = -0.162
Oligonucleotide = ACTGGGAT; result = -0.207
Oligonucleotide = GAGCCAGC; result = -0.0519
Oligonucleotide = TGTTCTAA; result = -0.025
Oligonucleotide = GCGGCACA; result = 0.21
Oligonucleotide = CTCAAAAA; result = -0.129
Oligonucleotide = CAGGCAAC; result = -0.172
Oligonucleotide = ACTGTTTC; result = 0.0624
Oligonucleotide = TTACAGAA; result = -0.196
Oligonucleotide = TACGCAAA; result = -0.0131
Oligonucleotide = CTTGCAGC; result = 0.0593

Sample 2
Target: RING finger protein unkempt homolog, zinc fingers 1-6, GST-SBP tag (UNK, Homo sapiens, UniProt Q9C0B0, residues 30-357)
Chain of UniProt Q9C0B0 (30-357, looked up): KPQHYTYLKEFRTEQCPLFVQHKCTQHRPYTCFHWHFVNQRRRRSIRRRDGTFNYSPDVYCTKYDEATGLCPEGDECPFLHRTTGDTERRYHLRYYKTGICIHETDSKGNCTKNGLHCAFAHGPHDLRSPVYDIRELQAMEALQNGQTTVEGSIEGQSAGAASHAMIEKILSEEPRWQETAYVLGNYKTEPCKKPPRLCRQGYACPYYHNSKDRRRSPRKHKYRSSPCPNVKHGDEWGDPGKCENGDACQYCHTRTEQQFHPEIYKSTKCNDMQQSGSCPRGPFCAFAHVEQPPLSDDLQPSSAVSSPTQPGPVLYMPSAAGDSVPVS
Technique: RNA Bind-n-Seq
Form: RNA
Matrix: in vitro
Tested at: not given
Notes: RNA with constant flanks, human-mouse chimeric sites, ends assumed
Baseline: input RNA pool
Direction: higher = stronger binding
Measurement: bound/input enrichment
All sequences stand within: GGGAGUUCUACAGUCCGACGAUC … CAACAGAGGAUUGAGCAUCA
Oligonucleotide = AACUUCGUGCAUCGGUUUCCCUUUGUAGCUGUUUCAAUUGGCUUCCUUGUGAAUAAAAAGAUAGAAUUUGGAAUUGUGUACAGCUGUGUGGAAGGCAAGAUGUACACCGGCAGGAAAGGG; result = 2.55 ratio
Oligonucleotide = GCCACCAGAUCCCAGAAACAUGACCCUUGCUGCCUACAAAGAGAAGAUGAAGGAACUCCCGCUGGUGUCCUUGUUCUGCUCCUGCUUCCUGGCCGAUCCCCUGAAUAAAUCAUCCUACAA; result = 0.395 ratio
Oligonucleotide = AUGGAACAUUUUGAUGCGUCACUCAGUACCUAUUUCAAGGCCUUCCUGGGCCCCCGAGAUACAAGAGUCAAAGGAUGGUUUCUUCUGGACAAUUACAUCCCUACGUUUGUCUGUUCUGUU; result = 0.135 ratio
Oligonucleotide = GAUGAUAAUCACACAAACAAGUCACUGUUAUGUGACCAGCCUUGGGAUUCUUUUCCUGAUUAAUAUUCUCCCUGGAACCACUGGUCAAGGGGAAUCAAGACGACAAGAACCUGGGGACUU; result = 0.15 ratio
Oligonucleotide = AGAAUCUUGGGACUGUUUUGCUUGAUUGGUCAUUGGUAGCUUAACAAACAUGGAGAUAAGAUUAGAAAUCUUGACAUCAACAGGUAUUAAGCAGAAAAAACCAUGGCCACGUGUCUCCUG; result = 0.102 ratio
Oligonucleotide = AUAAAGGCUAUGUUGAGUGGUCCAGGUCAGUUUGCUGAGAAUGAAACCAACGAGGUCAAUUUUAGAGAGAUACCUUCACAUGUGCUAUCGAAAGUAUGCAUGUAUUUUACCUACAAGGUC; result = 0.128 ratio
Oligonucleotide = GGCCUGGGACCGUCCUGGGCUAGUACAAAUAGCGGCAGUGGAGGCUCGAGAGGAAAGUUUGUUAGUGGAGGCAGUGGUAGAGGCCGUAUGUACGCUCCCUUUACUCGAUAGAUGUGUUCU; result = 0.401 ratio

Sample 3
Target: RNA binding protein fox-1 homolog 2, RRM domain, GST-SBP tag (RBFOX2, Homo sapiens, UniProt O43251-10, residues 100-194)
Technique: RNA Bind-n-Seq
Form: RNA
Matrix: in vitro
Tested at: 365 nM
Notes: natural RNA segment, single round, ends assumed
Baseline: no-protein control
Direction: higher = stronger binding
Measurement: RBNS enrichment (R)
All sequences stand within: GGGAGUUCUACAGUCCGACGAUC … UGGAAUUCUCGGGUGCCAA
Target sequence (chain): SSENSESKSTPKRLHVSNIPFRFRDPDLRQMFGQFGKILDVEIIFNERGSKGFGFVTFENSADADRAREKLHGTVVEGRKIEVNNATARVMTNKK
Oligonucleotide = CAUGGAUCCAACCCAGGUCACAGGCCUGGGACUUGGUACCCUGGUUGGACACUCCUGAGACUCCAAGUCUGGCUUUCAGUUCAGUUUUCAUCUGUGUUGACAUCGGGGCC; result = 0.217
Oligonucleotide = GAUUGGAUGGAGUGGAUGUCUUCACUCAGUCUGCCAAUUCCCAUCCUAACCUCUUCUGGAAACACCCUAGCAUGUUUUCCCAGCUAGCUGGGUAUCCGUUCACCCAACCA; result = 1.42
Oligonucleotide = CAGAAACAGAGCACCGUGCAGAACUUCCACAGCUGAUCGGCCUCGCCUCGCAGAUUUGCCAAGUAUCCGCUUCCUGUGGAAGCAAGACCAAAAGGAAAUCAACUGAGUGG; result = 0.507
Oligonucleotide = UCUGCUCUAGACUGUGAAAUCAGCAUGUAUGUGAAAAAUCCCAGUCCUUGACCAUGUCUCCCACUCCACCUGCAAGUGAUUGCUGCCAUCUGUCCUGGGUGGGAUGCACC; result = 12.3
Oligonucleotide = GCCGGAUGCAGUGCAGCCAUAUAUUUAUCAGAAAGGUUUUAGAGUAUGUCUAUUGAUCCAUUUCUAGAAAAGAUGGUCGUAACUUAAGGAGUGAUAUUUGUGGAGGAGGA; result = 1.37
Oligonucleotide = CACUUUAAAAGUGCCUACAGAGUUCUGUAAAUGAAAACACAGCUCUGCAUGAGUUCAAACCUGUCGUUCCUCCUUACAGUAGGAAUGGCACAUAUUGAGGCGAUCAUAAG; result = 0.688
Oligonucleotide = GGACUUCGACCAGCAUCUGAAGGGAACCAGGUUGUGUGUGCUUGCAGUUUGCUCCCUGUUGACAUAGGGAAAAACUGAGUGUCAUAGGCAGUAUUUCACAGUGGACAUUU; result = 0.37
Oligonucleotide = ACACGGCAUGGGUUUGUUGACACUUUAAUUUUGCUAUAAAUGUGUGGAAUCACAAGUUGCUGUGAUACUUCAUUUUUAAAUUGUGAACUUUGUACAAAUUUUGUCAUGCU; result = 1.94
Oligonucleotide = GUGGUGAAGAGUUGCCAACUACCUCCUAGGCAUCCCGCCCACCUUGCUUUGACCUCCAGCAAGGCAGGGGCAUGGAGGGACAAGGCUGCUGCUAUCAGGACCCAUUCUGG; result = 0.791
Oligonucleotide = AAACCUGUGGGUGGGGUUGGGGUGGAGAAGUAGAGAGAGGGCAACAGCUUCCACAACUGCUUCAUCUCUGCCAACACUAAUUUUUCCCACACUGUCUUUGUACAUUUCAG; result = 0.229
Oligonucleotide = CUUUUCUUUUAUGAUCCUUCUCUGCUAGAACAGGUUAAUUCUCCAAAUUUGUUUUGUUUUGUUUUGUUAUUUUUUAGGGAACUCUUUUGCAAAAGCAAUGGUCGGAUGUA; result = 3.12
Oligonucleotide = AGAAAGUACUUUAUGUAACUAAGUGGGCUGUUCAGAAGCUUAGAGGUCAUUUUUUGUAAUUUUCUUUUUAAUUACUUUAGAGAGCUAGGGAUGCAAAUGUUUUCAGUUAG; result = 1.67

Sample 4
Target: Ras GTPase-activating protein-binding protein 1, RRM domain (G3BP1, Homo sapiens, UniProt Q13283)
Chain of UniProt Q13283 (whole entry, looked up): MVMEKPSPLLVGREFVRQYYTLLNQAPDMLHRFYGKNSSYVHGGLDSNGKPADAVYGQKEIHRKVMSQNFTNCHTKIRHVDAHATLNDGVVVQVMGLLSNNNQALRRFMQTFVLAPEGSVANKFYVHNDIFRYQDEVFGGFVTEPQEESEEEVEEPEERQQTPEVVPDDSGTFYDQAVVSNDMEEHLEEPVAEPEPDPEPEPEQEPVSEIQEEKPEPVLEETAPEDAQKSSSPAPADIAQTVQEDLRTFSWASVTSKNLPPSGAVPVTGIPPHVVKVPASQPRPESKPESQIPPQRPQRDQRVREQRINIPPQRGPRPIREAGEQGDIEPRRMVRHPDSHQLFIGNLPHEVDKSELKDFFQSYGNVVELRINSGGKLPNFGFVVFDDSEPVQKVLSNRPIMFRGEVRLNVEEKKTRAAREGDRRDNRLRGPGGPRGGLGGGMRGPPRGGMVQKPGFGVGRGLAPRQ
Technique: RNA Bind-n-Seq
Form: RNA
Matrix: in vitro
Tested at: 1 µM
Notes: whole 134-nt RNA, ends assumed
Added: 150 mM KCl
Baseline: input library
Direction: higher = stronger binding
Measurement: log2 enrichment
All sequences stand within: GGGAGUUCUACAGUCCGACGAUC … UGGAAUUCUCGGGUGUCAAGG
Oligonucleotide = CAAGUCCUGUGCUACACAUCGUAUGUACCGAAUCGGGCCCGGGGCCCGGCCCGGGGAAAGUAUUAUGUUACGCCGUUCGGAUCUGCACUU; result = -0.756
Oligonucleotide = GUCCUGUGCUACACAUCGUAUGUACCGAAUCGGGGCCCCCGGGGCCCCCGGCCCCCGGAAAGUAUUAUGUUACGCCGUUCGGAUCUGCAC; result = -0.504
Oligonucleotide = CAAGUCCUGUGCUACACAUCGUAUGUACCGAAUCGGCCCGGGGCCCGGCCCGGGGAAAGUAUUAUGUUACGCCGUUCGGAUCUGCACUUC; result = -0.65
Oligonucleotide = GUCCUGUGCUACACAUCGUAUGUACCGAAUCGGGUUUUUGGGUUUUUGGGUUUUUGGGGAAAGUAUUAUGUUACGCCGUUCGGAUCUGCA; result = 0.428
Oligonucleotide = AGUCCUGUGCUACACAUCGUAUGUACCGAAUCGGUUUUUGGGGUUUUUGGUUUUUGGGAAAGUAUUAUGUUACGCCGUUCGGAUCUGCAC; result = -0.164
Oligonucleotide = CCUCAAGUCCUGUGCUACACAUCGUAUGUACCGAAUCGGUGGUUUUUGGUGGAAAGUAUUAUGUUACGCCGUUCGGAUCUGCACUUCCAG; result = -0.235
Oligonucleotide = AGUCCUGUGCUACACAUCGUAUGUACCGAAUCGGGGAAAAAGGGGAAAGGGGAGGGGAAAGUAUUAUGUUACGCCGUUCGGAUCUGCACU; result = 1.03
Oligonucleotide = UGGGAGGUGGAUUUUGAUUAUUUUUUUAGCUCAUUUCCAGGGGUGGGAAUUUUUUUUUAAUAUGUGUCAUGAAUAAAGUUGUUUUUGAAA; result = 2.13
Oligonucleotide = AGUCCUGUGCUACACAUCGUAUGUACCGAAUCGGGGUUUUGGUUUUGGGGUUUUGGGAAAGUAUUAUGUUACGCCGUUCGGAUCUGCACU; result = -0.000447
Oligonucleotide = UUCCUCAAGUCCUGUGCUACACAUCGUAUGUACCGAAUCGGUGGUGGAGGAAAGUAUUAUGUUACGCCGUUCGGAUCUGCACUUCCAGCA; result = -0.315
Oligonucleotide = GCAGGAAGUAAAAACAAAUGGAAAUGCUUCGGAUAGUGGCAGGGGUGGGGGUUACUAAGGAAAGGGUGGGAUGGGAGUGGGUAAAGAGUU; result = 0.662
Oligonucleotide = UUGUCUUCUGAGAUGUUGGGCCCCUCUUGGGAUGGAGAUGAAGCAGAAUCCACUGGUGAAAUCAUUAGACUUGGAGACACAGCACACACC; result = -0.0626
Oligonucleotide = CAAGUCCUGUGCUACACAUCGUAUGUACCGAAUCGGGGAAAGGAAAGGGGAAAGGAAAGUAUUAUGUUACGCCGUUCGGAUCUGCACUUC; result = -0.267
Oligonucleotide = CACAGACAACACGCACCCACACAGACACACAGGGAAGGGGUUGGGAUGGGGACAGGGUGCACAGCAGGGCGGGGUAGGACCCCAGCCCCU; result = 0.245

A few entries again (sample 3):
Oligonucleotide = CACUUUAAAAGUGCCUACAGAGUUCUGUAAAUGAAAACACAGCUCUGCAUGAGUUCAAACCUGUCGUUCCUCCUUACAGUAGGAAUGGCACAUAUUGAGGCGAUCAUAAG; result = 0.688
Oligonucleotide = GGACUUCGACCAGCAUCUGAAGGGAACCAGGUUGUGUGUGCUUGCAGUUUGCUCCCUGUUGACAUAGGGAAAAACUGAGUGUCAUAGGCAGUAUUUCACAGUGGACAUUU; result = 0.37
Oligonucleotide = ACACGGCAUGGGUUUGUUGACACUUUAAUUUUGCUAUAAAUGUGUGGAAUCACAAGUUGCUGUGAUACUUCAUUUUUAAAUUGUGAACUUUGUACAAAUUUUGUCAUGCU; result = 1.94
Oligonucleotide = GUGGUGAAGAGUUGCCAACUACCUCCUAGGCAUCCCGCCCACCUUGCUUUGACCUCCAGCAAGGCAGGGGCAUGGAGGGACAAGGCUGCUGCUAUCAGGACCCAUUCUGG; result = 0.791
Oligonucleotide = AAACCUGUGGGUGGGGUUGGGGUGGAGAAGUAGAGAGAGGGCAACAGCUUCCACAACUGCUUCAUCUCUGCCAACACUAAUUUUUCCCACACUGUCUUUGUACAUUUCAG; result = 0.229
Oligonucleotide = CUUUUCUUUUAUGAUCCUUCUCUGCUAGAACAGGUUAAUUCUCCAAAUUUGUUUUGUUUUGUUUUGUUAUUUUUUAGGGAACUCUUUUGCAAAAGCAAUGGUCGGAUGUA; result = 3.12
Oligonucleotide = AGAAAGUACUUUAUGUAACUAAGUGGGCUGUUCAGAAGCUUAGAGGUCAUUUUUUGUAAUUUUCUUUUUAAUUACUUUAGAGAGCUAGGGAUGCAAAUGUUUUCAGUUAG; result = 1.67
